# Measurements from different studies.
# Numbered parts are unrelated; each lists some results of a single study.
# UniProt P29320, sequence (whole entry, looked up): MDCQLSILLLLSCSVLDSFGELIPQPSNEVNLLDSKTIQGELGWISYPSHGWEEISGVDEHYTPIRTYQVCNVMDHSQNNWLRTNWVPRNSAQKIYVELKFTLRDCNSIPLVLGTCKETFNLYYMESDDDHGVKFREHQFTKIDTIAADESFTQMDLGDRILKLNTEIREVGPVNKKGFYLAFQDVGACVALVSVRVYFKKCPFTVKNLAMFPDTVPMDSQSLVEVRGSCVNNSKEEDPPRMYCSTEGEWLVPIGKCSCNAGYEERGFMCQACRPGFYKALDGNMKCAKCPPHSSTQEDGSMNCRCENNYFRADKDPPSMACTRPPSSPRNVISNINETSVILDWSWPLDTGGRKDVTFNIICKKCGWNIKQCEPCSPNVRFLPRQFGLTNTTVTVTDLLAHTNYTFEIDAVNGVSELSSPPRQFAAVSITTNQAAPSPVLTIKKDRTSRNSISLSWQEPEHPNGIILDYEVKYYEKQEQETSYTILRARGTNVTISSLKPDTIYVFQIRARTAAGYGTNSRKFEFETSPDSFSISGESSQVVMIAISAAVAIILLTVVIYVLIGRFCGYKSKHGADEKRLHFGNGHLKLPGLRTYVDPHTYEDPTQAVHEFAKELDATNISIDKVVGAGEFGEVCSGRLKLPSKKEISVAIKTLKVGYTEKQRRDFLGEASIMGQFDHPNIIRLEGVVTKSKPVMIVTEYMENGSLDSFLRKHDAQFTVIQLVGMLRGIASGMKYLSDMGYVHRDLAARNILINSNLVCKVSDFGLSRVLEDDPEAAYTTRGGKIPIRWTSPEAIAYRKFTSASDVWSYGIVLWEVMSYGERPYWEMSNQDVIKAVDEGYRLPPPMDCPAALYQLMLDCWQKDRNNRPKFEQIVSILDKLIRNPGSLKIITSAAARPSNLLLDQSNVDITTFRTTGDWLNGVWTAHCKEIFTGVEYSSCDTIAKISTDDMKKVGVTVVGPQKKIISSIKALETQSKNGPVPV
# UniProt P36507, sequence (whole entry, looked up): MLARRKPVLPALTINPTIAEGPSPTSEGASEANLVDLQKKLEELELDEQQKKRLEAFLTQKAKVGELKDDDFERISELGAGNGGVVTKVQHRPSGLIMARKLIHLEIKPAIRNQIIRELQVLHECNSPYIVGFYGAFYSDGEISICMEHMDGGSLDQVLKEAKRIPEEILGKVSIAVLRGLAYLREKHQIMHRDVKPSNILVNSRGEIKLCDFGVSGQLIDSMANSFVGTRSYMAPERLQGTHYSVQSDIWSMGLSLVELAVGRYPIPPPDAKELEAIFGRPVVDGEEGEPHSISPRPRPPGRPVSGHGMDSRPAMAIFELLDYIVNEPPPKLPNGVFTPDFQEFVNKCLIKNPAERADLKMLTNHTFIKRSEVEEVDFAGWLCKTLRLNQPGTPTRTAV
# UniProt Q99558, sequence (whole entry, looked up): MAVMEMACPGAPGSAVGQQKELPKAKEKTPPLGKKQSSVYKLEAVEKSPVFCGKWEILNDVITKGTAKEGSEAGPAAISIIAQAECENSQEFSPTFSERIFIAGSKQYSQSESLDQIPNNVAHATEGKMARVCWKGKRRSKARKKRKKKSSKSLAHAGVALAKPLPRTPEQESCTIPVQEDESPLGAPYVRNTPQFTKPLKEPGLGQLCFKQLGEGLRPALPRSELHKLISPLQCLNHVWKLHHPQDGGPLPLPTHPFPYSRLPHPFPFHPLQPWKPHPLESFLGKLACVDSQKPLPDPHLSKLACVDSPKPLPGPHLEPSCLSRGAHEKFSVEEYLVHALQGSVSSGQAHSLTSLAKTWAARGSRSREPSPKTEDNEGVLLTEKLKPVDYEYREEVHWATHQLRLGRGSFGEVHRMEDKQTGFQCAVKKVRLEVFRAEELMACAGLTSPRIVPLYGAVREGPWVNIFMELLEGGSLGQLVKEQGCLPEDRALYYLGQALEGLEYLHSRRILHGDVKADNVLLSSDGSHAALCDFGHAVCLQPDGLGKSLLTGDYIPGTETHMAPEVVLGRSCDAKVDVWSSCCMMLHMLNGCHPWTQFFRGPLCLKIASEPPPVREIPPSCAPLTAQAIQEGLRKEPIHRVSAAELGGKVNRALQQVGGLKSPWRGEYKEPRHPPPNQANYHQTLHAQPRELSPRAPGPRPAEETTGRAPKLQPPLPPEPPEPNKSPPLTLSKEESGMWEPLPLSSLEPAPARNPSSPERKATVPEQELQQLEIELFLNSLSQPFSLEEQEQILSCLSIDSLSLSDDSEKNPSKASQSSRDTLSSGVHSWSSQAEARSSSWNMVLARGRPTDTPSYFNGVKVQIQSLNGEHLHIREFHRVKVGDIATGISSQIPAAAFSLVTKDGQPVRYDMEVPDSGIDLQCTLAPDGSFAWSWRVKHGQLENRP
# UniProt P27361, sequence (whole entry, looked up): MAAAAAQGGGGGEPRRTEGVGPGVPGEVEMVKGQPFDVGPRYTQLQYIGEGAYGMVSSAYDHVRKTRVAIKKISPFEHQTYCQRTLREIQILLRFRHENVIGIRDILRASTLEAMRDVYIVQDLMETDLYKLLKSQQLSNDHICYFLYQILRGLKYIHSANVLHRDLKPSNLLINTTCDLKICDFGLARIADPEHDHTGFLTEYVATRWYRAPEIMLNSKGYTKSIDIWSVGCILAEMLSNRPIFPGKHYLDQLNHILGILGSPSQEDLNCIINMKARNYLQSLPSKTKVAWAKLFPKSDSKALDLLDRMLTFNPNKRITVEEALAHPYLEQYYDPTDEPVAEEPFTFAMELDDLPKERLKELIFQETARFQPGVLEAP
# UniProt P06239, sequence (whole entry, looked up): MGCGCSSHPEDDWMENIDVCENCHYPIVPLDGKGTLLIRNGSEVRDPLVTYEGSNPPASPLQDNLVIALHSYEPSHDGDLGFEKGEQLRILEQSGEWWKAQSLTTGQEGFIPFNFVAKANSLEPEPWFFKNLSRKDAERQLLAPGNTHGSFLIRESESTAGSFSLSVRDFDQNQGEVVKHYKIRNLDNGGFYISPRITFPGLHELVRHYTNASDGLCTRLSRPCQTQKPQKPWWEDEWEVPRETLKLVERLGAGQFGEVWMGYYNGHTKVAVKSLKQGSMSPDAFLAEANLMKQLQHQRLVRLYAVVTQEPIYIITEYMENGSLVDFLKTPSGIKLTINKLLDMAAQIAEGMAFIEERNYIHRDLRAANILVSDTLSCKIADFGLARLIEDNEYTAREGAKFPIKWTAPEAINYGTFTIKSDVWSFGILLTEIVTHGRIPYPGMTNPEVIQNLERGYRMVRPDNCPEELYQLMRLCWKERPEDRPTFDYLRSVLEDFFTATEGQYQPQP
# UniProt Q9HC98, sequence (whole entry, looked up): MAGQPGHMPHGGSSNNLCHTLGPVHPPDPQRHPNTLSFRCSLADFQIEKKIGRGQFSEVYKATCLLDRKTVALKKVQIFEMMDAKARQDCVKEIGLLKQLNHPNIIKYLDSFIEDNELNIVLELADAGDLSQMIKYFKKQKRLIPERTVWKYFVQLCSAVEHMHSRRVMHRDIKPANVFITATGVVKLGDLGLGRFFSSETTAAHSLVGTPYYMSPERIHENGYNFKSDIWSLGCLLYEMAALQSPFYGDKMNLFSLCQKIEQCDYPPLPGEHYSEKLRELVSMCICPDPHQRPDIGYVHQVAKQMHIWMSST
# UniProt P30291, sequence (whole entry, looked up): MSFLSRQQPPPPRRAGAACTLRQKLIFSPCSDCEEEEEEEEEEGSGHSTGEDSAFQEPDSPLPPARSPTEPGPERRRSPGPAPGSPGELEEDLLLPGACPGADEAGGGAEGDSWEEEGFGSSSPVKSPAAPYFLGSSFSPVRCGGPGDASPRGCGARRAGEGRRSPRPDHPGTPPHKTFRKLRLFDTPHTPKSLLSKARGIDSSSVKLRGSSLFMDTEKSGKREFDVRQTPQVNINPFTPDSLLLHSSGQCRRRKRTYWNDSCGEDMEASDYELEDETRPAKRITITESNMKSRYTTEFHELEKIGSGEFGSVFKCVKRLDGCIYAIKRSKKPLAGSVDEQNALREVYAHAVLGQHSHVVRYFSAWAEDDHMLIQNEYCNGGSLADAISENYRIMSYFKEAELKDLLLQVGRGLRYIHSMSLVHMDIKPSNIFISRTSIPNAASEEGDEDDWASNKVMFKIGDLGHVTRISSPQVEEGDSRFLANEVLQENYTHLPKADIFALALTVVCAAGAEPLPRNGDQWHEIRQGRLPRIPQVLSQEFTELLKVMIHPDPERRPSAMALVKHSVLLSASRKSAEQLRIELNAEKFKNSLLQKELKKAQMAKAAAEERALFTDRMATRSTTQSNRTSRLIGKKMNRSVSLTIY
# UniProt P0C264, sequence (whole entry, looked up): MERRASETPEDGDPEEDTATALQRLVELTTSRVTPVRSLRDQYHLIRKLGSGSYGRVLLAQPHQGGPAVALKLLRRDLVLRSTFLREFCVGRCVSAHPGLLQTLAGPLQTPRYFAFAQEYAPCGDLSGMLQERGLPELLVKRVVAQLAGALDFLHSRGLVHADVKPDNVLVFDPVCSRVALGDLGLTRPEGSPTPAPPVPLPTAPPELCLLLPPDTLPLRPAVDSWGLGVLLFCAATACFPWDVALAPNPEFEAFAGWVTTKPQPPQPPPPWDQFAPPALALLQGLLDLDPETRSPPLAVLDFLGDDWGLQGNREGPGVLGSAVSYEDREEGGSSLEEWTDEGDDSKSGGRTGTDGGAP

# Study 1
# SMILES: CC(C)S(=O)(=O)c1ccc2nccc(Nc3ccc4sc(C5CCCC5)nc4c3)c2c1.Cl
# Read-out: kinase activity
# Mode: inhibitor
# Tested at: 1 µM
target,remaining activity
"ERBB2 (Homo sapiens, UniProt P04626)",96%
"STK38L (Homo sapiens, UniProt Q9Y2H1)",100%
"WNK3 (Homo sapiens, UniProt Q9BYP7)",109%
"BTK (Homo sapiens, UniProt Q06187)",96%

# Study 2
# Target: Calcium/calmodulin-dependent protein kinase type II subunit alpha (CAMK2A, Homo sapiens, UniProt Q9UQM7)
# UniProt Q9UQM7, sequence (whole entry, looked up): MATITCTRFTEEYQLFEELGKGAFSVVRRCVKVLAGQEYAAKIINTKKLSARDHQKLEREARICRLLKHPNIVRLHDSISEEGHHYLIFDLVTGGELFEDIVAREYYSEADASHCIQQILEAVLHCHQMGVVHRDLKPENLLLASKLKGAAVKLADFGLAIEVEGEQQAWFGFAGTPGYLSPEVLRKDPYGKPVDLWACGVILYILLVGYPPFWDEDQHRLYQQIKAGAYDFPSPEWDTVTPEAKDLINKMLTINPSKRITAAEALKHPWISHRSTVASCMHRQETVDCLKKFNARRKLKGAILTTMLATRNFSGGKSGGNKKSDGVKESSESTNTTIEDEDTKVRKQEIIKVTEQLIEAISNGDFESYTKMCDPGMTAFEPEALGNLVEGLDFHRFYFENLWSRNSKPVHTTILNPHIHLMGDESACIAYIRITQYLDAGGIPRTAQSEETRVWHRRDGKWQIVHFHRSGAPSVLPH
# Read-out: enzyme activity
# Mode: inhibitor
# Tested at: 10 µM
Compound,inhibition [%]
CCOC(=O)[C@H](CCc1ccccc1)N[C@@H](C)C(=O)N1CC2(C[C@H]1C(=O)O)SCCS2,-6
CCc1cnccn1,26
Cc1ccc2ccc(=O)oc2c1,1
COc1cc(C(C)=O)ccc1O[C@@H]1O[C@H](CO)[C@@H](O)[C@H](O)[C@H]1O,-31
C=C1C[C@@]23CC[C@H]4[C@@](C)(CCC[C@@]4(C)C(=O)O[C@@H]4O[C@H](CO)[C@@H](O)[C@H](O[C@@H]5O[C@H](CO)[C@@H](O)[C@H](O)[C@H]5O)[C@H]4O[C@@H]4O[C@H](CO)[C@@H](O)[C@H](O)[C@H]4O)[C@@H]2CC[C@]1(O[C@@H]1O[C@H](CO)[C@@H](O)[C@H](O[C@@H]2O[C@H](CO)[C@@H](O)[C@H](O)[C@H]2O)[C@H]1O[C@@H]1O[C@H](CO)[C@@H](O)[C@H](O)[C@H]1O)C3,-14

# Study 3
# SMILES: COc1cccc(CNC(=O)c2nc3scc(COCc4ccc(C(=O)O)cc4)c3c(=O)[nH]2)c1
# Read-out: cell-free assay
# Method: competition with immobilised ligand
# Tested at: 1 µM
target,remaining binding
"MAPK6 (Homo sapiens, UniProt Q16659)",99.9%
"PLK3 (Homo sapiens, UniProt Q9H4B4)",65.3%
"EPHB6 (Homo sapiens, UniProt O15197)",100%
"MAPK4 (Homo sapiens, UniProt P31152)",80%
"EGFR (Homo sapiens, UniProt P00533, G719C)",91.4%

# Study 4
# Cell line: A-375
# Tested at: 100 µM
# Time: 18 h
SMILES,viability
C[C@H](CCC(=O)O)[C@H]1CC[C@H]2[C@@H]3[C@H](O)C[C@@H]4C[C@H](O)CC[C@]4(C)[C@H]3CC[C@]12C,96.9%
CCC(Cc1c(I)cc(I)c(N)c1I)C(=O)O (centres unmarked),104%
C[N+](C)(C)CCOC(N)=O,101%
CC(C)C[C@H](NC(=O)CNC(=O)c1cc(Cl)ccc1Cl)B(O)O,24.9%

# Study 5
# Species: human
# Sample: microsomes or S9
# Tested at: 2 µM
# Time: 0.5 h
Compound,remaining compound
Cc1ccc(CN2C(=O)N(Cc3ccccc3)C(=O)C2CC(C)C)s1 (centres unmarked),3.07%
Cc1nn(C)c(C)c1CN(C)S(=O)(=O)c1c(C)n[nH]c1C,40.8%
CCS(=O)(=O)CC(C)N(C)c1cnc(C#N)cn1 (centres unmarked),83.8%
O=C(CCn1c(Cc2ccccc2F)nc2cc(Cl)c(Cl)cc21)NCCN1CCOCC1,1.24%

# Study 6
# SMILES: Clc1ccc(Nc2nnc(Cc3ccncc3)c3ccccc23)cc1
# Read-out: enzyme activity
# Mode: inhibitor
# Tested at: 0.5 µM
# Reference: control
target,remaining activity
"CSNK1G3 (Homo sapiens, UniProt Q9Y6M4)",100%
"NEK1 (Homo sapiens, UniProt Q96PY6)",75.3%
"JAK3 (Homo sapiens, UniProt P52333)",92.1%
"MAP3K14 (Homo sapiens, UniProt Q99558)",126%
"CSNK1G2 (Homo sapiens, UniProt P78368)",98.2%
"MAPK3 (Homo sapiens, UniProt P27361)",94.7%
"WEE1 (Homo sapiens, UniProt P30291)",109%
"GSK3B (Homo sapiens, UniProt P49841)",104%
"MERTK (Homo sapiens, UniProt Q12866)",116%
"ARAF (Homo sapiens, UniProt P10398)",97.6%
"EPHA3 (Homo sapiens, UniProt P29320)",98.8%
"TAOK2 (Homo sapiens, UniProt Q9UL54)",85.4%
"TBK1 (Homo sapiens, UniProt Q9UHD2)",104%
"MAP3K5 (Homo sapiens, UniProt Q99683)",101%
"LCK (Homo sapiens, UniProt P06239)",87%
"MAP2K2 (Homo sapiens, UniProt P36507)",100%
"ULK2 (Homo sapiens, UniProt Q8IYT8)",99.9%
"TEK (Homo sapiens, UniProt Q02763)",97.5%
"RPS6KA2 (Homo sapiens, UniProt Q15349)",97.5%
"GRK7 (Homo sapiens, UniProt Q8WTQ7)",92.2%
"NEK6 (Homo sapiens, UniProt Q9HC98)",93.3%
"FRK (Homo sapiens, UniProt P42685)",95.4%
"FGFR3 (Homo sapiens, UniProt P22607)",91.5%

# Study 7
# Compound: C[C@H]1CC[C@H](n2c3cnccc3c3cnc(Nc4ccc5c(n4)CCN(C(=O)CO)C5)nc32)CC1
# Read-out: cell-free assay
# Tested at: 1 µM
target,remaining signal
"SBK3 (Homo sapiens, UniProt P0C264)",100%
"EGFR (Homo sapiens, UniProt P00533, G719C)",99%
"ABL1 (Homo sapiens, UniProt P00519, F317I)",89%
"MAP3K10 (Homo sapiens, UniProt Q02779)",83%
"SRPK2 (Homo sapiens, UniProt P78362)",100%
